# Measured values of several laboratories.
# Parts stem from different laboratories: compare values within a part only. Changes are numbered by the printed parent chain.

# Set 1 — Substitution: I79A; technique: DHFR PCA, deep sequencing; medium: yeast; baseline: wild-type fitted maximum; reading: higher = stronger binding
# Target: ABI1, truncated, D143A, DHFR fusion (Arabidopsis thaliana)
# Setting: methotrexate growth selection, single substitutions
# Starting sequence: PYL1, truncated, DHFR fusion (Arabidopsis thaliana); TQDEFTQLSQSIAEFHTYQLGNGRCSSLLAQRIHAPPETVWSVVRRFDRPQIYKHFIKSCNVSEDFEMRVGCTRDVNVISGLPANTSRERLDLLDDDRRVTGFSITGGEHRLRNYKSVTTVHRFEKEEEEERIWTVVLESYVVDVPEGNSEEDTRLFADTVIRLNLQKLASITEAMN
conditions,relative binding score
with: (+)-ABA 0.0091 µM,18.8%
with: (+)-ABA 0 µM,16.3%
with: (+)-ABA 17 µM,76.9%
with: (+)-ABA 710 µM,105%
with: (+)-ABA 0.11 µM,18.4%
with: (+)-ABA 4.8 µM,55.3%

# Set 2 — technique: protein-binding microarray; form: hairpin DNA; medium: in vitro; tested at: not given; baseline: not given; reading: higher = stronger binding; all sequences stand within: GAGGCCG … CGGCCTCACACTC
# Target: Krueppel-like factor 3, full length (KLF3, Homo sapiens, UniProt P57682, residues 1-345)
# Sequence of UniProt P57682 (whole entry, looked up): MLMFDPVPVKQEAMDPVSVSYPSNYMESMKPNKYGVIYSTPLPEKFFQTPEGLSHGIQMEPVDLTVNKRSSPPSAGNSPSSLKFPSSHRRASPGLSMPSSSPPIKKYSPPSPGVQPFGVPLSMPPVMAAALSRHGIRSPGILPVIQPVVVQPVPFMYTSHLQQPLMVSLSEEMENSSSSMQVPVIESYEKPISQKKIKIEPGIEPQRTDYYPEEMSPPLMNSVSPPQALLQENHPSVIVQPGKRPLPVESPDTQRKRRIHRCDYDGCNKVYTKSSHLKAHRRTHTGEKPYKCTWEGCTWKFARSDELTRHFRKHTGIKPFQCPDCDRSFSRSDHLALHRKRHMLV
# Setting: whole hairpin DNA, median over replicate spots
Oligonucleotide,median fluorescence [a.u.]
ACCGGGCCCAGCCTCCTGGCTGGGCCCGGT,8010
ACCGCGCCCAGCCTCCTGGCTGGGCGCGGT (5mC at 14),8690
ACCGCGCCCAGCCTCCTGGCTGGGCGCGGT,8680
GCCGCGCCCAGCCTCCTGGCTGGGCGCGGC,8650
AGCGCGCCCAGCCTCCTGGCTGGGCGCGCT,8460
ACCGCGCCCAGCCTCCTGGCTGGGCGCGGT (5mC at 10),8430
ACCGCGCCCAGCCTCCTGGCTGGGCGCGGT (5mC at 34),8830
CCCGCGCCCAGCCTCCTGGCTGGGCGCGGG (5mC at 8),8780

# Set 3 — read-out: peptide-MHC binding; form: peptide; tested at: concentration not given
# Target: HLA class I histocompatibility antigen, C alpha chain, allele C*04:01 (Homo sapiens, UniProt P10321)
Sequence,binding
TFMGMNVQF,inactive
RYSHWTKL,inactive
FADSDNIAM,inactive
TRDPNLAYI,inactive

# Other studies, line by line
Sequence,target,test,test system,conditions,scale,measurement,result
AAAVRKPIVLKR,human cyclin B2,"peptide binding, yeast competitive growth sequencing","peptide, Saccharomyces cerevisiae, cyclin B2-Cln2 fusion","concentration not given, peptide tiling library","baseline: Cln2 fusion control, direction not given",binding enrichment score,-0.42

# A few entries again (set 1):
conditions,relative binding score
with: (+)-ABA 710 µM,105%
with: (+)-ABA 0.11 µM,18.4%
with: (+)-ABA 4.8 µM,55.3%
